Experimental data gathered from unrelated publications.
Each line is one published result; not all experiments were run side by side.
EGFR: Epidermal growth factor receptor (EGFR, Homo sapiens, UniProt P00533)
EGFR del746-750: Epidermal growth factor receptor (EGFR, Homo sapiens, UniProt P00533, del746-750)

Structure (SMILES) | target | read-out | method | concentration | baseline | remaining binding [%]
C=CC(=O)N1CCc2ccc(-n3c(=O)ccc4cnc5ccc(-c6cnn(C)c6)cc5c43)cc21 | EGFR | – | KINOMEscan | 1 µM | DMSO control | 100
Nc1ncc2c(n1)-c1c([nH]c3ccc(C4=CCOCC4)cc13)CCC2 | Epidermal growth factor receptor (EGFR, Homo sapiens, UniProt P00533, L858R/T790M) | binding | competition with immobilised ligand | 1 µM | – | 68
Cc1ccc(-c2c(/C=C(\C#N)C(=O)NC(C)C)n(CCCO)c3ncnc(N)c23)cc1 | EGFR | cell-free assay | competition with immobilised ligand | 1 µM | – | 79
CNC(=O)C1CCN(c2cc(C)c(F)cc2NC(=O)c2ccc(-c3cc(O)ccc3C)c(C)c2)CC1 | Epidermal growth factor receptor (EGFR, Homo sapiens, UniProt P00533, A750P/del747-749) | binding | competition with immobilised ligand | 1 µM | – | 18
CCN1CCN(Cc2ccc(C(=O)Nc3ccc(C)c(NCc4cnc5[nH]ccc5c4OC)c3)cc2C(F)(F)F)CC1 | Epidermal growth factor receptor (EGFR, Homo sapiens, UniProt P00533, G719S) | binding | competition with immobilised ligand | 1 µM | – | 1.8
CCN1CCN(Cc2ccc(NC(=O)c3ccc(C)c(NC(=O)c4cncc(-c5cccs5)c4)c3)cc2C(F)(F)F)CC1 | EGFR del746-750 | binding | competition with immobilised ligand | 1 µM | – | 0.9
C=CC(=O)N1CCCC(n2c(=O)c3ncccc3n(Cc3ccc(Oc4ccccc4)cc3)c2=O)C1 (stereo not shown) | EGFR | cell-free assay | competition with immobilised ligand | 1 µM | – | 88
COc1c(Cl)cccc1Nc1c(-c2ccncc2C#C[C@@]2(C)CCCN2C(=O)/C=C/CN(C)C)[nH]c2c1C(=O)NCC2 | EGFR del746-750 | cell-free assay | competition with immobilised ligand | 3 µM | – | 0.15
CC(C)=CC1OC(C)(C)C2C=C3C(=O)C(Cl)=CC(O)C3C3C(O)C4OC4C(=O)C132 (stereo not shown) | Epidermal growth factor receptor (EGFR, Homo sapiens, UniProt P00533, L861Q) | cell-free assay | competition with immobilised ligand | 10 µM | – | 96
CNC1C[S+]2CC[S+]3CC[S+](C1)[Ru-4]321([N]=C=S)[n]2c3ccc(OC)cc3c3c4c(c5cc(F)c[n+]1c5c32)C(=O)NC4=O (stereo not shown) | Epidermal growth factor receptor (EGFR, Homo sapiens, UniProt P00533, T790M) | – | KinomeScan | 0.1 µM | untreated | 100
